Published values collected from several papers.
Parts stem from different laboratories: compare values within a part only. Values joined by “and” are separate records of one study, mostly repeats; a detail may differ.
Chain of UniProt Q8IVH8 (whole entry, looked up): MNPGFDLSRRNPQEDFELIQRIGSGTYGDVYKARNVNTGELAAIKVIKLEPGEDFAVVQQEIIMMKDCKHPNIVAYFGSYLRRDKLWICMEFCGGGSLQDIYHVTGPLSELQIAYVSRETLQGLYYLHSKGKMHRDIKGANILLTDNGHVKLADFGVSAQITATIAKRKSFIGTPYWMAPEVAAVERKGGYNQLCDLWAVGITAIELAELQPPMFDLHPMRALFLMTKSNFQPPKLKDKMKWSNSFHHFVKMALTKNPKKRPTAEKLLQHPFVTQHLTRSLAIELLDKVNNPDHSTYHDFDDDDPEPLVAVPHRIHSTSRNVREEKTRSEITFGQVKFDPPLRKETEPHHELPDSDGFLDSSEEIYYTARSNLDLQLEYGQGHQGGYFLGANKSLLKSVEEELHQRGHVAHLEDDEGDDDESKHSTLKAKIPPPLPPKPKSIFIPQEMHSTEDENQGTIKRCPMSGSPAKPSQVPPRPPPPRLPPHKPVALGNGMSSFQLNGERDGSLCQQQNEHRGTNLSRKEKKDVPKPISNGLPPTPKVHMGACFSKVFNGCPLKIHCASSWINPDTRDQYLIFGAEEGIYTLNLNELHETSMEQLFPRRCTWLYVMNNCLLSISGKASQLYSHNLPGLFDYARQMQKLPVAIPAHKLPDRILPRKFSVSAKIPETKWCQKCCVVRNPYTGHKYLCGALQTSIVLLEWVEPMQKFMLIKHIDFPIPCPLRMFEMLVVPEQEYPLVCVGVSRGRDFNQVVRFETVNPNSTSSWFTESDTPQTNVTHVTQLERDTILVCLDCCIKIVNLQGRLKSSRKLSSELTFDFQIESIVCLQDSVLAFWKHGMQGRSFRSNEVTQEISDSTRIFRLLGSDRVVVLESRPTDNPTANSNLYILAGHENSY
Chain of UniProt P49137 (whole entry, looked up): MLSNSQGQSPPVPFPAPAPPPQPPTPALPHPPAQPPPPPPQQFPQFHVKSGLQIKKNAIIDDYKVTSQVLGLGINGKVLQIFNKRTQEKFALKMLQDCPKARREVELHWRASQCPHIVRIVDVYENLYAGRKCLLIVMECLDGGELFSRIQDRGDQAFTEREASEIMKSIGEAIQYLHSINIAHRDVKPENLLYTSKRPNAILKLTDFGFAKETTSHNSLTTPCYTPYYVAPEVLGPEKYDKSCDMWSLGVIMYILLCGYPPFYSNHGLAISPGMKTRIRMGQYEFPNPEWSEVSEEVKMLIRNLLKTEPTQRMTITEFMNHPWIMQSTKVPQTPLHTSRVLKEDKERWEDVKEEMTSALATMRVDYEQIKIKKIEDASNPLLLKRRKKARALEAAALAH
Chain of UniProt P48729 (whole entry, looked up): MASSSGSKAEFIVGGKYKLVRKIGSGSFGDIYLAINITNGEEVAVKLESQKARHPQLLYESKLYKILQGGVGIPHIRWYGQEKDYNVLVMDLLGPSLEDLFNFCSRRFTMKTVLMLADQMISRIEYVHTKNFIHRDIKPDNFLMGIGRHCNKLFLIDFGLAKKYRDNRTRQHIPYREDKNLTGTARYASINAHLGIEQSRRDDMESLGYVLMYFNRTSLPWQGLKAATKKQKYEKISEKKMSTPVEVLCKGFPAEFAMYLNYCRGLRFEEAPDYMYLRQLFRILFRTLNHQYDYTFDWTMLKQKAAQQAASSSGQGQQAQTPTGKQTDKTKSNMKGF
Chain of UniProt O43683 (whole entry, looked up): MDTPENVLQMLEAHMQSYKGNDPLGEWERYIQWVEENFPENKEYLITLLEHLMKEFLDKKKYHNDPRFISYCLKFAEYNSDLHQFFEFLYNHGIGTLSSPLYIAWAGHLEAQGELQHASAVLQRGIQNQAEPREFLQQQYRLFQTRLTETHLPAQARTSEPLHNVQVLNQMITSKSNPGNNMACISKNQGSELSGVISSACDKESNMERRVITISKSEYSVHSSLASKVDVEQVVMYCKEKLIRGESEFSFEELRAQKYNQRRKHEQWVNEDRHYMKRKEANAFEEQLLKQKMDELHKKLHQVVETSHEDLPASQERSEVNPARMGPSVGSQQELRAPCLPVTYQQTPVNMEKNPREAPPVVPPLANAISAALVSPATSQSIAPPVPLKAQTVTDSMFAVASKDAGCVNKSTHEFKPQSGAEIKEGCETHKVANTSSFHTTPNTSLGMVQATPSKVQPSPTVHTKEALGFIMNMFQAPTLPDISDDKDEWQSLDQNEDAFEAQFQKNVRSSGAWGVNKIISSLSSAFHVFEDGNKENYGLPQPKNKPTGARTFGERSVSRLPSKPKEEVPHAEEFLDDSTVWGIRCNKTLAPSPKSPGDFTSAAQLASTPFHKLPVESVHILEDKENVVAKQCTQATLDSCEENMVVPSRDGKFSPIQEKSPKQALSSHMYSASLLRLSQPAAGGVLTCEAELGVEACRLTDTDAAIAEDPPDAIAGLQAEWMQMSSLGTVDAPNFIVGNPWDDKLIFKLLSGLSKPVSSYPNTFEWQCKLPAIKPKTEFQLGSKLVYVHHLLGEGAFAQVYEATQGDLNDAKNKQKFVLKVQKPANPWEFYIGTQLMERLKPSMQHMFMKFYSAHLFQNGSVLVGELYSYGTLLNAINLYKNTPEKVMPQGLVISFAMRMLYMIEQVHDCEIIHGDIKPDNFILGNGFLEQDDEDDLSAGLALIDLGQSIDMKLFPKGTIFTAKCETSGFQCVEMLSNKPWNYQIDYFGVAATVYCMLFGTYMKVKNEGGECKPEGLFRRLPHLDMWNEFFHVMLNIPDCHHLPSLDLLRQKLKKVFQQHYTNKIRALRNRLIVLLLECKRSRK
Chain of UniProt P53671 (whole entry, looked up): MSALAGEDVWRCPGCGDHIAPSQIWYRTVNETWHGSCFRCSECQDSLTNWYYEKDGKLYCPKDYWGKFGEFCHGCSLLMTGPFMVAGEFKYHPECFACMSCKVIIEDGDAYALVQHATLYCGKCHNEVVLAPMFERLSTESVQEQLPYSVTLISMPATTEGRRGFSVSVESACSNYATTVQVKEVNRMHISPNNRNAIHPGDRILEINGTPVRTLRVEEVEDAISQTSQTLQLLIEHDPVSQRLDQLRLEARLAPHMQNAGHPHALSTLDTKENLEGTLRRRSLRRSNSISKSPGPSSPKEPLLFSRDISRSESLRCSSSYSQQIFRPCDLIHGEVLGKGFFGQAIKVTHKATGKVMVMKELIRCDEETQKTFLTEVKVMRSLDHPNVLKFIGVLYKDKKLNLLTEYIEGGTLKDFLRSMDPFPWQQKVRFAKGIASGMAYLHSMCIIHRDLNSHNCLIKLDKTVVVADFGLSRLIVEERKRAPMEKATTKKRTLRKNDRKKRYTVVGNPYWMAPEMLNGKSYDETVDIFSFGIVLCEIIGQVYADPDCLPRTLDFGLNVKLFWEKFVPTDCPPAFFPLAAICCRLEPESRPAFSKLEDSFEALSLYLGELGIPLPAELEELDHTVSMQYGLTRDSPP
Chain of UniProt Q15831 (whole entry, looked up): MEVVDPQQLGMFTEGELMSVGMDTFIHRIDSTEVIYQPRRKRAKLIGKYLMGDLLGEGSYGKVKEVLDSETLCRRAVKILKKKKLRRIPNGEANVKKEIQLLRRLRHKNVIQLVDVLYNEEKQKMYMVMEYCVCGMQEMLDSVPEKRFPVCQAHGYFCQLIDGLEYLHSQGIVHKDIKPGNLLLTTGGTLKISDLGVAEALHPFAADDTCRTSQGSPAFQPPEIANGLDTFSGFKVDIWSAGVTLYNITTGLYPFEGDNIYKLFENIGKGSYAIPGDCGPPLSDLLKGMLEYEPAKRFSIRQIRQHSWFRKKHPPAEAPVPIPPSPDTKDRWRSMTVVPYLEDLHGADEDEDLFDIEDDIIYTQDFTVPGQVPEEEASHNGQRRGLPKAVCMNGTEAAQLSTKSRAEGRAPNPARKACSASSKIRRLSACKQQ
Chain of UniProt P15735 (whole entry, looked up): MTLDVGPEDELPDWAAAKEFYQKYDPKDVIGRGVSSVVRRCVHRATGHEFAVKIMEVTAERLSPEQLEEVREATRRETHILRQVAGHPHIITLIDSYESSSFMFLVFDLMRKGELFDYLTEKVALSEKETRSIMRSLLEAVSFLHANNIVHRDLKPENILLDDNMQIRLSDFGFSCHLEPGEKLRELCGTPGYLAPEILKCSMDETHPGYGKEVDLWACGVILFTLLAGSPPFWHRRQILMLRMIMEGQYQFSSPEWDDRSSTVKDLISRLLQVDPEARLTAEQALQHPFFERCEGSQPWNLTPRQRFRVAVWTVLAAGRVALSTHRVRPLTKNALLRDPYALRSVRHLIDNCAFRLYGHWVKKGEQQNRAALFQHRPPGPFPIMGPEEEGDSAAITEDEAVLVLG

Sample 1 — organism: Sarcocystis neurona; read-out: parasite growth; tested at: concentration not given; notes: second screen; reference: untreated; endpoint: log2 fold change
CC(Cc1ccccc1)(NC(=O)CN)c1ccccc1.Cl (centres unmarked): -0.0085
Nc1nc(Cl)nc2c1ncn2[C@@H]1O[C@H](CO)[C@@H](O)[C@H]1O: 0.32
CN1C(C(=O)Nc2ccccn2)=C(O)c2ccccc2S1(=O)=O.O: 0.27

Sample 2 — cell line: mouse MPNST tumor cells; technique: high-content immunofluorescence imaging; measured: nuclear SOX9; tested at: 10 µM; time: 12 h; notes: mean of 2 replicates; reference: DMSO control; direction: higher = more nuclear SOX9; endpoint: nuclear SOX9 intensity
Clc1ccc(CO/N=C(\Cn2ccnc2)c2ccc(Cl)cc2Cl)c(Cl)c1: 91.6 % of DMSO
COc1ccc(CC(=O)NCc2ccccc2-c2ccccc2C(=O)NCc2ccc(F)cc2F)cc1: 106 % of DMSO
COc1ccc(-n2[nH]c3c4c(ncc3c2=O)CCCCC4)cc1: 93.4 % of DMSO
CN(C)CCC=C1c2ccccc2CCc2ccccc21: 199 % of DMSO

Sample 3 — host: mouse; sample: microsomes or S9; tested at: 2 µM; time: 0.5 h; endpoint: remaining compound
CN1CCN(c2ccc(C(=O)Nc3c[nH]c4ncnc(-c5cnn(C6CCN(C(=O)OC(C)(C)C)CC6)c5)c34)cc2)CC1: > 100%
Cc1nc(NCC(C(C)C)N(C)C)c2nc(C)oc2n1 (centres unmarked): 71.1%
CCOC(=O)N1CCN(C(=O)c2ccc(-c3ccc(Oc4ccccc4)cc3)nc2)CC1: 0.737%
CCn1nccc1C(C)NS(=O)(=O)c1ccc(Br)s1 (centres unmarked): 44.8%
CN(Cc1ccccc1)C(=O)COc1ccc2c3ccccc3n(C(=O)c3ccc(C(C)(C)C)cc3)c2c1: 2.62%
Clc1nn2c(-c3ccccc3)nnc2c2ccccc12: 4.97%

Sample 4 — read-out: cell-free assay; technique: competition with immobilised ligand; tested at: 1 µM; endpoint: remaining binding
SMILES: C[C@@H](c1cccc(C#N)c1)n1cc(Cl)cc(C(N)=O)c1=N
RET (Homo sapiens, UniProt P07949): 100%
CSNK1A1 (Homo sapiens, UniProt P48729): 81%
CSNK1G1 (Homo sapiens, UniProt Q9HCP0): 82%
BUB1 (Homo sapiens, UniProt O43683): 93%
FLT3 (Homo sapiens, UniProt P36888, N841I): 86%
STK11 (Homo sapiens, UniProt Q15831): 74%
MAP4K3 (Homo sapiens, UniProt Q8IVH8): 100%
LIM domain kinase 1 (LIMK1, Homo sapiens, UniProt P53667): 100%
PDGFRA (Homo sapiens, UniProt P16234): 100%
PKMYT1 (Homo sapiens, UniProt Q99640): 100%
FLT3 (Homo sapiens, UniProt P36888, R834Q): 100%
PHKG2 (Homo sapiens, UniProt P15735): 100%
PIM3 (Homo sapiens, UniProt Q86V86): 100%
CAMK2A (Homo sapiens, UniProt Q9UQM7): 100%
TRPM6 (Homo sapiens, UniProt Q9BX84): 71%
Tyrosine-protein kinase ABL1, phosphorylated (ABL1, Homo sapiens, UniProt P00519, M351T): 0%
MAPKAPK2 (Homo sapiens, UniProt P49137): 97%
LIM domain kinase 2 (LIMK2, Homo sapiens, UniProt P53671): 100%

Sample 5 — action: antagonist; endpoint: IC50
Target: Beta-1 adrenergic receptor (ADRB1, Homo sapiens, UniProt P08588)
Chain of UniProt P08588 (whole entry, looked up): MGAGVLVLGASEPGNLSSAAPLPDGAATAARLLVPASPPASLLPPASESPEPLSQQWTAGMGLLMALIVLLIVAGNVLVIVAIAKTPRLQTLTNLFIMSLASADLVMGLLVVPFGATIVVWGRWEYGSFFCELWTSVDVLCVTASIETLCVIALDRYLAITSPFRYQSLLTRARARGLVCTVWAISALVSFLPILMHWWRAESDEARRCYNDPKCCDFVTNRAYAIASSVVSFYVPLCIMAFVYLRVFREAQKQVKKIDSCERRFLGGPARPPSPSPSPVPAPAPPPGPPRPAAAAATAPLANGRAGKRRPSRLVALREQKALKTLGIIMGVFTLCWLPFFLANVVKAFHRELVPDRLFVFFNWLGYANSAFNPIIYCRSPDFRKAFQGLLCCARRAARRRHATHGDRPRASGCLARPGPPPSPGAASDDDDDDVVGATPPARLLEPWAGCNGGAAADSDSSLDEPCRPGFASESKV
O=C(c1nc(-c2ccccc2)cc2[nH]ccc12)N1CCOCC1: ≥ 100 µM
Cc1cc2c(s1)c1cnn(Cc3c(F)ccc(C)c3Cl)c(=O)c1n2C: ≥ 100 µM
Cc1noc2c(-c3cccnc3)cc(-c3cccc(C(F)(F)F)c3)nc12: ≥ 100 µM
COc1cc(CNCCC(C)C)ccc1OCC(O)CN1CCSCC1 (centres unmarked): ≥ 100 µM
Cc1ccc(-c2cc(C(=O)Nc3ccc([S+](=O)([O-])NCc4nccs4)cc3)c3ccccc3n2)cc1C: 22.4 µM

Single results of other studies
CCCN1C(=O)[C@H](CC(C)C)NC(=O)[C@@H](N(C)C(=O)[C@H](CC2CCC2)NC(=O)[C@@H]2C[C@@H](F)CN2C(=O)[C@@](C)(O)C(F)(F)F)CCCCNC(=O)C2(CC2)NC(=O)[C@@H]1Cc1cc(Cl)ccc1Cl — tumour volume (mouse NCI-H1048 xenograft; iv, 100 mg/kg once daily, day 7): 297 mm3 and 417 mm3 and 314 mm3 and 225 mm3 and 364 mm3 and 291 mm3 and 376 mm3 and 342 mm3
CC(=O)N[C@@H](Cc1c[nH]c2ccccc12)C(=O)N[C@@H](CCC(=O)C=[N+]=[N-])C(=O)OC(C)C — pyridoxate level (UPLC-MS/MS; EL4 tumor, C57BL/6 CES1-/- mice, tumor; subcutaneous, 0.3 mg/kg DON equivalent daily, 5 days; higher = more metabolite): 110000 a.u. and 47400 a.u. and 159000 a.u. and 65000 a.u. and 107000 a.u. and 79900 a.u.

Repeated from above (sample 4):
BUB1 (Homo sapiens, UniProt O43683): 93%
PKMYT1 (Homo sapiens, UniProt Q99640): 100%
